{"data": "Assay results from different studies", "target": "Casein kinase I isoform delta (CSNK1D, Homo sapiens, UniProt P48730)", "note": "Each line is one published result; not all experiments were run side by side.", "sequence of UniProt P48730 (whole entry, looked up)": "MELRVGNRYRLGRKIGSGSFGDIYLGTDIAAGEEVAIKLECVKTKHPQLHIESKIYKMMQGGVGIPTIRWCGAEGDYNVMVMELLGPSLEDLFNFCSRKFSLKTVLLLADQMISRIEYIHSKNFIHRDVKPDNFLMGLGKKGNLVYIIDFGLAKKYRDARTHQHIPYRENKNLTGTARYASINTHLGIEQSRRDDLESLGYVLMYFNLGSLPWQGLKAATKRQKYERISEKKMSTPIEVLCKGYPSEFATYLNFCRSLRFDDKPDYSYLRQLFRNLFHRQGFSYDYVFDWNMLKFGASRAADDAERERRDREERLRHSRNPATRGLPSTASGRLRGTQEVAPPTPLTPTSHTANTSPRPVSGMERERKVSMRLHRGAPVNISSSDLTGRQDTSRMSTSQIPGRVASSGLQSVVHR"}
{"Structure (SMILES)": "COc1cc(F)ccc1-c1ncnc(Nc2cccc(C[S@](C)(=N)=O)c2)n1", "assay": "kinase activity", "setting": "10 µM, with: 10 µM ATP", "measurement": "remaining activity", "result": "97%"}
{"Structure (SMILES)": "CNc1ncc2c(/C=C/C(=O)N3CCC(OC)CC3)nn(Cc3cccc(C(F)(F)F)c3)c2n1", "assay": "kinase activity, inhibitor", "setting": "1 µM", "scale": "reference: untreated control", "measurement": "remaining activity", "result": "102%"}
{"Structure (SMILES)": "Fc1ccc(-c2ncn(-c3ccc(-c4ccccc4)cc3)c2-c2ccncc2)cc1", "assay": "inhibitor", "setting": "1 µM", "measurement": "inhibition", "result": "6%"}
{"Structure (SMILES)": "Cn1c(=O)n(-c2ccc(C(C)(C)C#N)cc2)c2c3cc(-c4cnc5ccccc5c4)ccc3ncc21", "assay": "enzyme activity", "setting": "10 µM", "measurement": "remaining activity", "result": "96%"}
{"Structure (SMILES)": "Cc1cc(Nc2cc(N3CCN(C)CC3)nc(Sc3ccc(NC(=O)C4CC4)cc3)n2)[nH]n1", "assay": "kinase activity, KinaseProfiler", "setting": "0.03 µM, species human", "scale": "reference: control", "measurement": "remaining activity", "result": "121%"}
{"Structure (SMILES)": "Nc1nc(Nc2ccccc2)sc1C(=O)c1c(F)cccc1F", "assay": "enzyme activity, inhibitor", "setting": "10 µM", "measurement": "remaining activity", "result": "13%"}
{"Structure (SMILES)": "Cc1ccc(-n2nc(C)c3c(N)nc(N)nc32)c(Cl)c1", "assay": "KinomeScan competition", "setting": "7.5 µM", "measurement": "remaining binding", "result": "16%"}
{"Structure (SMILES)": "Oc1ccc(-c2nc(-c3ccncc3)c(-c3ccc(F)cc3)[nH]2)cc1", "assay": "inhibitor", "setting": "1 µM", "measurement": "inhibition", "result": "57%"}
{"Structure (SMILES)": "O=C1NC(=O)/C(=C/c2ccc(-c3ccc(F)cc3O)o2)S1", "assay": "enzyme activity", "setting": "10 µM", "measurement": "remaining activity", "result": "85%"}
{"Structure (SMILES)": "COC(=O)c1ccc(-c2nc(-c3cccc(C)c3)c(-c3ccncc3)[nH]2)cc1", "assay": "kinase activity", "setting": "1 µM", "measurement": "inhibition", "result": "10%"}
{"Structure (SMILES)": "CC(C)(C)C(=O)c1sc(NC2CCCCC2)nc1N", "assay": "enzyme activity, inhibitor", "setting": "10 µM", "measurement": "remaining activity", "result": "74%"}
{"note": "Excerpt of the above:"}
{"Structure (SMILES)": "Cn1c(=O)n(-c2ccc(C(C)(C)C#N)cc2)c2c3cc(-c4cnc5ccccc5c4)ccc3ncc21", "assay": "enzyme activity", "setting": "10 µM", "measurement": "remaining activity", "result": "96%"}
{"Structure (SMILES)": "Cc1cc(Nc2cc(N3CCN(C)CC3)nc(Sc3ccc(NC(=O)C4CC4)cc3)n2)[nH]n1", "assay": "kinase activity, KinaseProfiler", "setting": "0.03 µM, species human", "scale": "reference: control", "measurement": "remaining activity", "result": "121%"}
